Measurements gathered from unrelated publications.
“And” joins repeats or separate records; there may be more than shown. Numbers after ± are the reported error.
AMY2: Pancreatic alpha-amylase (AMY2, Sus scrofa, UniProt P00690)
Sequence of UniProt P00690 (whole entry, looked up): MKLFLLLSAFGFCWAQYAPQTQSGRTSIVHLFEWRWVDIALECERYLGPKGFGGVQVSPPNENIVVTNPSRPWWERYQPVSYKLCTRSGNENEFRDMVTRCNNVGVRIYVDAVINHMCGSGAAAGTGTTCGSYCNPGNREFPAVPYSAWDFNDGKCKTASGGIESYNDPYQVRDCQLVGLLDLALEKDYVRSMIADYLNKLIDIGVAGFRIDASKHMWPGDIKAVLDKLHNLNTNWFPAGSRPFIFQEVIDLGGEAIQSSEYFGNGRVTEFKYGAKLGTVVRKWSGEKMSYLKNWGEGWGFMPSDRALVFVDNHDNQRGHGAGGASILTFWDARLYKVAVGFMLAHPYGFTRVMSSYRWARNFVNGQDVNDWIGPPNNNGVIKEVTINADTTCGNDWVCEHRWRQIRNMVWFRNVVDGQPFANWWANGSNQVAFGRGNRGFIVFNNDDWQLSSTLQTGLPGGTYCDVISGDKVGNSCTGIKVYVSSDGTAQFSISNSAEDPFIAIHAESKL
HTR5A: 5-hydroxytryptamine receptor 5A (HTR5A, Homo sapiens, UniProt P47898)
Sequence of UniProt P47898 (whole entry, looked up): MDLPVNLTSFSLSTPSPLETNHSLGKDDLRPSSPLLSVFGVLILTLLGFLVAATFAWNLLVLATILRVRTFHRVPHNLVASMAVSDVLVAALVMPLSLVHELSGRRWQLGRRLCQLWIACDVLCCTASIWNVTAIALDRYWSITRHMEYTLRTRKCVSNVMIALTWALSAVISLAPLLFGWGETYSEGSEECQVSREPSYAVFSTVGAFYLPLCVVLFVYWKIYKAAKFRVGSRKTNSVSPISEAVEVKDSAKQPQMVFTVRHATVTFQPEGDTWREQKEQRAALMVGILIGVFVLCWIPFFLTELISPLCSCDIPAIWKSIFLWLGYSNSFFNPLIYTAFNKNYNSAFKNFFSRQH
HDAC11: Histone deacetylase 11 (HDAC11, Homo sapiens, UniProt Q96DB2)
Sequence of UniProt Q96DB2 (whole entry, looked up): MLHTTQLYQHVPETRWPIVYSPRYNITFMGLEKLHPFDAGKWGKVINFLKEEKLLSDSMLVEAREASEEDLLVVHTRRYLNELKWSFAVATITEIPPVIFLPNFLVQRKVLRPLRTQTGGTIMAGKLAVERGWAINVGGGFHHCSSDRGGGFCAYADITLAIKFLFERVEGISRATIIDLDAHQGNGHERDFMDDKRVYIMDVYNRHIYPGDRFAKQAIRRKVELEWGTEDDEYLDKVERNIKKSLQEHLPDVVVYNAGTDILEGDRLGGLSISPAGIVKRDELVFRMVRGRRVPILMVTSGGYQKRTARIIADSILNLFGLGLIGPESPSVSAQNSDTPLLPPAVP
DRD4: D(4) dopamine receptor (DRD4, Homo sapiens, UniProt P21917)
Sequence of UniProt Q8IWT6 (whole entry, unmodified, looked up): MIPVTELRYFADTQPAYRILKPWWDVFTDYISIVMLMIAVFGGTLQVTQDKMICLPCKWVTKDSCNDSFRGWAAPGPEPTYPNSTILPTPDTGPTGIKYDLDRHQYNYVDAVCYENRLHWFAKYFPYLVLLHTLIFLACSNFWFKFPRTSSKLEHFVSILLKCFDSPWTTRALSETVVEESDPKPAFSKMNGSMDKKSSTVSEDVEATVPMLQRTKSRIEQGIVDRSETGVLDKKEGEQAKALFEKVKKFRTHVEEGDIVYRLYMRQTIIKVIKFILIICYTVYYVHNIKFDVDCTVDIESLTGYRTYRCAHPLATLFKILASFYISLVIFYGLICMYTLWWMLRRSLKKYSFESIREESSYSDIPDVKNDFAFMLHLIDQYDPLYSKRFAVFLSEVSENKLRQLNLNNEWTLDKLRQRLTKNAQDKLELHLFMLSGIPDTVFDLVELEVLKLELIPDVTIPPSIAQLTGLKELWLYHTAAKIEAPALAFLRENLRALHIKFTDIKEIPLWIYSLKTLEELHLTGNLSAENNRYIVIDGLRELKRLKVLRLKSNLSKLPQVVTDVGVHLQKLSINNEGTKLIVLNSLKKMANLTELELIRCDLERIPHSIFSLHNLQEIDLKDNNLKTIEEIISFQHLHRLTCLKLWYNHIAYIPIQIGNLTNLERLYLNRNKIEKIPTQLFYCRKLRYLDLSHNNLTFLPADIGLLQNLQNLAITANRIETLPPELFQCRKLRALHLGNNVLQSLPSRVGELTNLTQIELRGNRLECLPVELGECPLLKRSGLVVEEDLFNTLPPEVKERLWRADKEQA
Sequence of UniProt P22001 (whole entry, looked up): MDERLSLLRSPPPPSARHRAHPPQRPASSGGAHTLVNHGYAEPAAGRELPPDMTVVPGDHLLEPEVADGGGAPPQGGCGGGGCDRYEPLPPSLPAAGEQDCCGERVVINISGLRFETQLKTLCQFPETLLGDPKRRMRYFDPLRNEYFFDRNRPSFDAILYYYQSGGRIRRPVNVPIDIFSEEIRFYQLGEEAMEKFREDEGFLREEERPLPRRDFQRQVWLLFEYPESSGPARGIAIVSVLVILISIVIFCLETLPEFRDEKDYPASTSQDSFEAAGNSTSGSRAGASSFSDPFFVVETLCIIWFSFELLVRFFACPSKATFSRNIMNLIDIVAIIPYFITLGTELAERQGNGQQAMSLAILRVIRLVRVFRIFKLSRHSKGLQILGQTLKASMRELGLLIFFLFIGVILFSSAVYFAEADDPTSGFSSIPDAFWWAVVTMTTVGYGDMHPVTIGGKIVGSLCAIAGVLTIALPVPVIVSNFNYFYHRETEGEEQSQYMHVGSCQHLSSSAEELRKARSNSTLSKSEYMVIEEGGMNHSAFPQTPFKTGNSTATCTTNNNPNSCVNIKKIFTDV
Sequence of UniProt P21917 (whole entry, looked up): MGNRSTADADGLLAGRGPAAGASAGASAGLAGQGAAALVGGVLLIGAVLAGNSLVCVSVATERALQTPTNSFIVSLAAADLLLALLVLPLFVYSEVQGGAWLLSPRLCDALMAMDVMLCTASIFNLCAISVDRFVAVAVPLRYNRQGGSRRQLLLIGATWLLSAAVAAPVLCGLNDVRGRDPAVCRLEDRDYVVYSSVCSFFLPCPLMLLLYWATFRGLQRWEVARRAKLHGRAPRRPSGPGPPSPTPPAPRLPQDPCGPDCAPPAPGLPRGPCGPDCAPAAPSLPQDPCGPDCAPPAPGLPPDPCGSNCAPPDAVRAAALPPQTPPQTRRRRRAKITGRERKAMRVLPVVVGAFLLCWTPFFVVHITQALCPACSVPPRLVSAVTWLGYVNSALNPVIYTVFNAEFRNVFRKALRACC
Sequence of UniProt Q63959 (whole entry, looked up): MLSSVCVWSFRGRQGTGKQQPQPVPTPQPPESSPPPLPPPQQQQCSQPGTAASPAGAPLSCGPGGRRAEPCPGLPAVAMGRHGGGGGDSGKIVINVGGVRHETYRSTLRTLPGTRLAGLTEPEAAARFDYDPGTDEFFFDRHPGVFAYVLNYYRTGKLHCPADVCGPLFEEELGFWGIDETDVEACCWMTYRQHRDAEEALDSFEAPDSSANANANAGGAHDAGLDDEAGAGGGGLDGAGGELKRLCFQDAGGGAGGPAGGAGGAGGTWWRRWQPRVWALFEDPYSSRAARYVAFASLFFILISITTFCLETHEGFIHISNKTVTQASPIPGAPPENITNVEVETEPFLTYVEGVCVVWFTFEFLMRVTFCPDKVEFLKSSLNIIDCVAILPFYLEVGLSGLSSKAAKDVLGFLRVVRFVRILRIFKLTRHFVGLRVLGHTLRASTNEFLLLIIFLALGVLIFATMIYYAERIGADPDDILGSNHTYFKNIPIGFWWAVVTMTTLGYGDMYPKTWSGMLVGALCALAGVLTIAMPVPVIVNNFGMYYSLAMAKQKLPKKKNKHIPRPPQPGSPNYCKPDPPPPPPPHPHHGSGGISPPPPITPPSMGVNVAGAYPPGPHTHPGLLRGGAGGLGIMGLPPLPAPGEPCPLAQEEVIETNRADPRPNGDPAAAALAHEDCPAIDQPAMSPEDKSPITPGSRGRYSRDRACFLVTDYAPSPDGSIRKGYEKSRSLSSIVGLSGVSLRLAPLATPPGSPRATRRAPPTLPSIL
Sequence of UniProt Q13946 (whole entry, looked up): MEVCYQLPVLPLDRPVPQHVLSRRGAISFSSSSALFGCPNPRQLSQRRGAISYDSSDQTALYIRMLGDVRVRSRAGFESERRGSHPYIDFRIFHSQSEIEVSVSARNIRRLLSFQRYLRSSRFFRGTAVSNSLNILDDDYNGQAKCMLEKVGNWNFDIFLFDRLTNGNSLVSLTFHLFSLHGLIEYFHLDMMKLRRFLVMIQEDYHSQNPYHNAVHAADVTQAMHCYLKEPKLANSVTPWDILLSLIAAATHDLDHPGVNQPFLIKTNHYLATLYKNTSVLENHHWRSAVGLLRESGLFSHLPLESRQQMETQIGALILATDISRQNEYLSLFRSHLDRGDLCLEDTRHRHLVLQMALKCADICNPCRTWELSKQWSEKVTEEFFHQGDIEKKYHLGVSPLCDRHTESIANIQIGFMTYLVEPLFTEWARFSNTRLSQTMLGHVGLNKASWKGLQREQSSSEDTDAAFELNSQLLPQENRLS
Sequence of UniProt P47747 (whole entry, looked up): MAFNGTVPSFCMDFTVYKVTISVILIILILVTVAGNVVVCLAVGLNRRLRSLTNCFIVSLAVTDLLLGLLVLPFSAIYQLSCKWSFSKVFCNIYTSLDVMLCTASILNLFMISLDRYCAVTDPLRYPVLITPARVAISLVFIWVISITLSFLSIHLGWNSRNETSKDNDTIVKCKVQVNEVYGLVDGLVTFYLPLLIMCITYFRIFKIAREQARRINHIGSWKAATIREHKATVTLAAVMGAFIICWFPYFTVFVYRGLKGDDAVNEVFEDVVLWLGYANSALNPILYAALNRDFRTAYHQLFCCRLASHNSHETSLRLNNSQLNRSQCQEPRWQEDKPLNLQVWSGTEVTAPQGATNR

SMILES | target | test | test system | conditions | scale | inhibition
O=C(Nc1cccc2c(=O)cc(-c3nnn[nH]3)oc12)c1ccc(OCCCCc2ccccc2)cc1 | LRRC8A/LRRC8C (Homo sapiens, UniProt Q8IWT6+Q8TDW0, Y124F/Y126F) | ion current, whole-cell patch clamp | HCT LRRC8-/- cells | 0.3 µM, +100 mV, Y124F/Y126F heteromers |  | -8.61% and 26.9% and 5.57% and -12.4% and -11.5% and -8.44%
C[C@H]1O[C@H](O[C@H]2[C@H](O)[C@@H](O)[C@@H](O[C@H]3[C@H](O)[C@@H](O)C(O)O[C@@H]3CO)O[C@@H]2CO)[C@H](O)[C@@H](O)[C@@H]1N[C@H]1C=C(CO)[C@@H](O)[C@H](O)[C@H]1O (stereo partly shown) | AMY2 | enzyme activity, inhibitor |  | concentration not given |  | 98.6 ± 1.23%
OC[C@H]1OC(O)[C@H](O)[C@@H](O)[C@@H]1O (stereo partly shown) | Hexokinase-3 (HK3, Homo sapiens, UniProt P52790) | enzyme activity, inhibitor, coupled G6PDH |  | 10 mM, full-length enzyme |  | ~40%
NC(=O)c1ncn([C@@H]2O[C@H](CO[P@@](=O)(O)O[P@](=O)(O)OP(=O)(O)O)[C@@H](O)[C@H]2O)n1 | Non-structural polyprotein pORF1, helicase domain (Hepatitis E virus genotype 1, UniProt P33424) | ATPase activity, inhibitor, colorimetric |  | 56 µM, with: ATP 100 µM |  | 1.23%
O=c1cc(-c2ccccc2)oc2cc(O)c(O)c(O)c12 | AMY2 | enzyme activity, inhibitor |  | 50 µM, with: CNP-G3 substrate |  | 64.04 ± 0.41%
O=C(c1ccc(F)cc1)C1CCN(CCn2c(=O)[nH]c3ccccc3c2=O)CC1 | 5-hydroxytryptamine receptor 2A (Rattus norvegicus, UniProt P14842) | radioligand binding | rat | 10 µM |  | 99.2%
Cc1cc2c(cc1N1C(=O)c3cccc4c(CCCO)ccc(c34)C1=O)n(C)c(=O)n2C (racemic) | Bromodomain-containing protein 2, BD2 (BRD2, Homo sapiens, UniProt P25440) | binding, BROMOscan binding |  | 100 nM |  | 72%
CCc1oc2ccccc2c1C(=O)c1cc(Br)c(O)c(Br)c1 | SLC22A12 (Homo sapiens, UniProt Q96S37, I156A) | urate uptake | HEK293T | 0.5 µM, 10 min, 37 °C, with: 200 µM [14C]urate |  | 5.2% and 17.3% and 1.7% and 14.8%
CC[C@H](CC[C@@H](C)[C@H]1CC[C@H]2[C@@H]3CC=C4C[C@@H](O[C@@H]5O[C@H](CO)[C@@H](O)[C@H](O)[C@H]5O)CC[C@]4(C)[C@H]3CC[C@]12C)C(C)C | PNLIP (Sus scrofa, UniProt P00591) | enzyme activity | porcine | 100 µg/mL, with: 4-MUO |  | 41.8 ± 4.13%
CCCCCCCCCCCCCCNC(=O)/C=C/c1ccc(O)c(O)c1 | AMY2 | enzyme activity |  | 20 µM, with: α-glucosidase present |  | 43.8 ± 3.67%
COc1cc(-c2cc(-c3ccc(N4CCNCC4)cc3)cnc2C)cc(OC)c1OC | RPS6KB2 (Homo sapiens, UniProt Q9UBS0) | kinome profiling |  | 0.1 µM |  | 15%
COc1cc(C(=O)NS(=O)(=O)c2ccccc2C)ccc1Cc1cn(C)c2ccc(NC(=O)OC3CCCC3)cc12 | Volume-regulated anion channel subunit LRRC8C, part LRRC8A IL1 chimera (LRRC8C, Homo sapiens, UniProt Q8TDW0, C43G) | ion current, inhibitor, whole-cell patch clamp | HCT LRRC8-/- cells | 1 µM, +100 mV |  | 28.8% and 19.6% and 4.77% and 12.7% and 29.7% and 0.909%
O=C(CN1CCO[C@@H](COc2cccnc2)C1)N1CCc2ccccc21 | HTR5A | radioligand binding |  | concentration not given, with: [3H]LSD |  | 25.8%
O=C(c1ccc(-c2ccccc2)cc1)N1CCCC1c1ccco1 (stereo not shown) | β2 adrenergic receptor | GTPγS binding |  | 20 µM, with: isoproterenol 10 µM |  | no inhibition
C#Cc1cc(-c2cc(Nc3nc(N[C@@H](C)c4ccc(F)cn4)ncc3Cl)n[nH]2)ccc1C=O | FLT4 (Homo sapiens, UniProt P35916) | enzyme activity, inhibitor |  | 0.2 µM |  | 53%
O=C(CN1CCO[C@@H](COc2ccccn2)C1)N1CCc2ccccc21 | HTR5A | radioligand binding |  | concentration not given, with: [3H]LSD |  | -19.1%
COc1ccc(OS(=O)(=O)Oc2cccc(C(=O)NO)c2)cc1OC | HDAC11 |  |  | 10 µM |  | 45%
COc1ccccc1N1CCN(CCCCN2CCc3ccccc3C2=O)CC1 | HTR2B (Homo sapiens, UniProt P41595) | radioligand binding |  | concentration not given, with: [3H]LSD |  | 95.6%
O=C(/C=C/c1cccc(OS(=O)(=O)Oc2ccc(C(F)(F)F)cc2)c1)NO | HDAC11 |  |  | 10 µM |  | 35%
O=c1cc(-c2ccc(O)c(O)c2)oc2c(Br)c(O)c(Br)c(O)c12 | AMY2 | enzyme activity, inhibitor |  | 50 µM, with: CNP-G3 substrate |  | 98.6 ± 1.8%
NC/C(=C\F)COc1cccc(Cn2c(=S)[nH]c(=O)c3[nH]cnc32)c1 | rat sodium channel site 2 | radioligand binding |  | 10 µM |  | < 50%
O=C(/C=C/c1cccc(OS(=O)(=O)Oc2ccccc2)c1)NO | HDAC11 |  |  | 10 µM |  | 7%

SMILES | target | test | test system | conditions | scale | inhibition
CC(C)c1noc2ncc(C(=O)c3ccccc3O)cc12 | Voltage-gated potassium channel KCNC3 (Kcnc3, Mus musculus, UniProt Q63959) | ion current, inhibitor, whole-cell patch clamp |  | 10 µM |  | 9.59% and 4.05% and 6.91% and 6.31% and 11%
Cc1cc(OS(=O)(=O)Oc2ccccc2)cc(C(=O)NO)c1 | HDAC11 |  |  | 10 µM |  | 39%
CCc1nn(C)c2nc(-c3ccc(C(=O)O)cc3)nc(NCc3ccc(F)cc3)c12 | PDE7A (Homo sapiens, UniProt Q13946) | enzyme activity |  | 10 µM, with: [3H]cAMP |  | 23.2%
Cc1ccc(OC[C@H]2CN(CCN3CCc4ccccc43)CCO2)cn1 | DRD4 | radioligand binding |  | concentration not given, with: [3H]N-methylspiperone |  | 43%
CC[C@@H]1[C@H](F)C(=O)N[C@@H]1COc1nccc2cc(C(N)=O)c(OC)cc12 | CLK3 (Homo sapiens, UniProt P49761) | ATP probe binding, KiNativ profiling, item: ATP loop probe site | THP-1 cell lysate | 0.2 mM |  | 0.659%
COc1ccc2c(=O)oc3c(OC)cc(CCN(C)C)c4c(=O)oc1c2c34 | TLR2 (Homo sapiens, UniProt O60603) | SEAP reporter gene, inhibitor | HEK-Blue hTLR2 | 10 µM, with: Pam3CSK4 |  | > 90%
CN(C(=O)n1cnc(-c2ccc[n+]([O-])c2)c1)C1CCCCC1 | Histamine H2 receptor (Cavia porcellus, UniProt P47747) | binding |  | 10 µM |  | -3.18%
Cc1nc2sccn2c(=O)c1CCN1CCC(=C(c2ccccc2)c2ccc(F)cc2)CC1 | Diacylglycerol kinase gamma (Dgkg, Rattus norvegicus, UniProt P49620) | enzyme activity, DAG kinase | HEK293T lysate overexpressing | 50 µM, with: [γ32P]-ATP | relative to: DMSO control | ~70%
O=C1c2ccccc2CCCN1CCCCN1CCN(c2ccccn2)CC1 | DRD4 | radioligand binding |  | concentration not given, with: [3H]N-methylspiperone |  | 100%
O=c1c(O)c(-c2ccc(O)c(O)c2)oc2c(Br)c(O)c(Br)c(O)c12 | AMY2 | enzyme activity, inhibitor |  | 50 µM, with: CNP-G3 substrate |  | 71.5 ± 1.86%
O=C(NO)c1ccc(CN2CCCCc3ccccc32)c(F)c1 | sigma-2 receptor | radioligand binding |  | 10 µM, mean |  | -5.45%
Cc1ccc(C(=O)Nc2ccc3ccccc3c2)o1 | KCNA3 (Homo sapiens, UniProt P22001) | ion current, inhibitor, whole-cell patch clamp |  | 10 µM |  | 8.3% and 24.4% and 14.1% and 21.6% and 10.9%
COc1ccc2c(c1)CN(CCCN1CCN(c3ccccc3OC)CC1)C2=O | HTR5A | radioligand binding |  | concentration not given, with: [3H]LSD |  | 60%
Cc1nn(-c2nc3c(F)cc(F)cc3s2)c(O)c1C(c1ccccc1C(=O)O)c1c(C)nn(-c2nc3c(F)cc(F)cc3s2)c1O | Cyclic GMP-AMP synthase, catalytic domain; with DNA (CGAS, Homo sapiens, UniProt Q8N884) | cGAS phase separation, inhibitor |  | 0.625 µM |  | 23.9%
Cc1cc(-c2ccnc3[nH]cc(F)c23)cc(F)c1[C@@]1(O)[C@H](C)CN(C2CCS(=O)(=O)CC2)C[C@@H]1C | AMPK alpha1 and alpha2 | ATP probe binding, KiNativ, item: Lys1 site | HEK293T cell lysate | 1 µM |  | 47.1%
Cc1ccnc(OC[C@H]2CN(CC(=O)N3CCc4ccccc43)CCO2)c1 | DRD4 | radioligand binding |  | concentration not given, with: [3H]N-methylspiperone |  | 44.1%
CCN(c1cc(C#CCN2CCOCC2)cc(C(=O)NCc2c(C)cc(C)[nH]c2=O)c1C)[C@H]1CC[C@H](N(C)CCOC)CC1 | Protein arginine N-methyltransferase 5, with WDR77 (PRMT5, Homo sapiens, UniProt O14744) | methyltransferase activity |  | 1 µM |  | -4 ± 2%
O=C(NO)c1cc(F)cc(OS(=O)(=O)Oc2ccc(Oc3ccccc3)cc2)c1 | HDAC11 |  |  | 5 µM |  | 51%
CCN(Cc1ccccc1C(F)(F)F)C(=O)C1CCN(S(=O)(=O)c2ccc3[nH]ncc3c2)CC1 | rat P2Y receptor | radioligand binding |  | 10 µM |  | 4%
O=C(NO)c1cccc(OS(=O)(=O)Oc2ccc3c(c2)OCO3)c1 | HDAC11 |  |  | 10 µM |  | 35%
O=C1c2ccccc2CCN1CCCCN1CCN(c2cccc(Cl)c2Cl)CC1 | DRD4 | radioligand binding |  | concentration not given, with: [3H]N-methylspiperone |  | 100%

For quick reference, copied from above:
SMILES | target | test | test system | conditions | scale | inhibition
CC[C@H](CC[C@@H](C)[C@H]1CC[C@H]2[C@@H]3CC=C4C[C@@H](O[C@@H]5O[C@H](CO)[C@@H](O)[C@H](O)[C@H]5O)CC[C@]4(C)[C@H]3CC[C@]12C)C(C)C | PNLIP (Sus scrofa, UniProt P00591) | enzyme activity | porcine | 100 µg/mL, with: 4-MUO |  | 41.8 ± 4.13%
CCCCCCCCCCCCCCNC(=O)/C=C/c1ccc(O)c(O)c1 | AMY2 | enzyme activity |  | 20 µM, with: α-glucosidase present |  | 43.8 ± 3.67%
COc1cc(-c2cc(-c3ccc(N4CCNCC4)cc3)cnc2C)cc(OC)c1OC | RPS6KB2 (Homo sapiens, UniProt Q9UBS0) | kinome profiling |  | 0.1 µM |  | 15%
